# Assay results of several laboratories.
# A part holds a random share of what one study measured. Several values in a cell are separate wells, animals, samples, runs or records.
# UniProt Q9NR20, sequence (whole entry, looked up): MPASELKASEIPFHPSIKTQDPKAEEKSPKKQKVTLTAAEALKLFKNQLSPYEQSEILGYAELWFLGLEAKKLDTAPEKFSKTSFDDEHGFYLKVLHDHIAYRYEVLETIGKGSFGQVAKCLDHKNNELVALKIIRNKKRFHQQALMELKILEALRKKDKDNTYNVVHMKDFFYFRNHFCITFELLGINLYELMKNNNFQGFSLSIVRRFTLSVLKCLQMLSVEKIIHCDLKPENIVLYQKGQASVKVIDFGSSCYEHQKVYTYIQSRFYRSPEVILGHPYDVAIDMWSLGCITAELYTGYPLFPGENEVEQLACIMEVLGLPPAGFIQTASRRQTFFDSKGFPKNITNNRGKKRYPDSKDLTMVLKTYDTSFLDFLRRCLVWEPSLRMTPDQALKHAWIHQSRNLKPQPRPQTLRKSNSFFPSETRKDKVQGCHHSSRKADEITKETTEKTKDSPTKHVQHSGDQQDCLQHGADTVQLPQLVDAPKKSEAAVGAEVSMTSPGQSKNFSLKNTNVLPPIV
# UniProt P17948, sequence (whole entry, looked up): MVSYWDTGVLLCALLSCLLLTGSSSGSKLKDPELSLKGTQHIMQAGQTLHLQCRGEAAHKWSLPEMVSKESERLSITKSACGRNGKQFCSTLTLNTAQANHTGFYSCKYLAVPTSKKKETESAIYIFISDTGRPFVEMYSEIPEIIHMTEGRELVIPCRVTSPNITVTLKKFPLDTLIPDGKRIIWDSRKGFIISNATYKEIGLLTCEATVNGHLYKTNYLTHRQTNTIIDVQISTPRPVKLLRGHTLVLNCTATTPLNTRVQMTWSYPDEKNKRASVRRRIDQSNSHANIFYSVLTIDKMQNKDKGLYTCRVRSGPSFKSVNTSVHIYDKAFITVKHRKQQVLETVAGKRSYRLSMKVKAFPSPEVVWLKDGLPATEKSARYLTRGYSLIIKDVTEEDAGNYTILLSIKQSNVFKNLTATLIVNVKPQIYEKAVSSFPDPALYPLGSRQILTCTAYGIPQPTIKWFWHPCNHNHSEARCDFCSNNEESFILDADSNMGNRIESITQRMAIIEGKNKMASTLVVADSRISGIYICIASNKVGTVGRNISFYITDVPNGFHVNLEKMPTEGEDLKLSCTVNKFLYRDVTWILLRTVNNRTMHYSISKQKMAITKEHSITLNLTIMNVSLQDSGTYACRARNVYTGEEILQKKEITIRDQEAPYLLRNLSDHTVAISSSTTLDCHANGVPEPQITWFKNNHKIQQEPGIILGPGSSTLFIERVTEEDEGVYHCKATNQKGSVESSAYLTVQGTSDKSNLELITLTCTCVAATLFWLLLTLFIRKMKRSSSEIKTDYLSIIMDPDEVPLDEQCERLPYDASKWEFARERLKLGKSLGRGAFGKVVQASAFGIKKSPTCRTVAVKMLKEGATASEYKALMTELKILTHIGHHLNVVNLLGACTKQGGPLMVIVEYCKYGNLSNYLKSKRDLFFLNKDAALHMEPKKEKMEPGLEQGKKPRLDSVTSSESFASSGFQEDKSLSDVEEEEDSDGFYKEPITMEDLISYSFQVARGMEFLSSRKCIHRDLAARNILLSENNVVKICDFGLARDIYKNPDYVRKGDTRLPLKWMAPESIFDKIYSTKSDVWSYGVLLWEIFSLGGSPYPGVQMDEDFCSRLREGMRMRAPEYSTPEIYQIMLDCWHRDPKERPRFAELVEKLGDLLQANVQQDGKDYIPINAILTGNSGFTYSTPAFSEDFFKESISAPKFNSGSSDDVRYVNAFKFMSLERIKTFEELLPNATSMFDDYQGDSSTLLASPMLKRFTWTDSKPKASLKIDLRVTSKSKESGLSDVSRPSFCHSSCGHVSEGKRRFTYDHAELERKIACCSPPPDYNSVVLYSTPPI

# Set 1 — observed: cell-free assay; tested at: 0.5 µM
# SMILES: N#CCCc1ccc2c(c1)-c1[nH]c3ccc([N+](=O)[O-])cc3c1CC(=O)N2
target,remaining signal
"ARAF (Homo sapiens, UniProt P10398)",94.5%
"VRK1 (Homo sapiens, UniProt Q99986)",97.5%
"RPS6KB2 (Homo sapiens, UniProt Q9UBS0)",96.1%
"DYRK4 (Homo sapiens, UniProt Q9NR20)",100%
"Cyclin-dependent kinase 2, with cyclin E (CDK2, Homo sapiens, UniProt P24941)",13.4%

# Set 2 — observed: cell-free assay; method: competition with immobilised ligand; tested at: 1 µM
# SMILES: CCS(=O)(=O)c1cc2cc(C[C@](O)(CC(C)(C)c3ccc(F)cc3C(N)=O)C(F)(F)F)[nH]c2cn1
target,remaining binding [%]
"HASPIN (Homo sapiens, UniProt Q8TF76)",100
"Non-receptor tyrosine-protein kinase TYK2, JH2 (TYK2, Homo sapiens, UniProt P29597)",93
"FLT1 (Homo sapiens, UniProt P17948)",81
"EIF2AK1 (Homo sapiens, UniProt Q9BQI3)",100
"CDK8 (Homo sapiens, UniProt P49336)",100
"MAP3K12 (Homo sapiens, UniProt Q12852)",100
"STK38L (Homo sapiens, UniProt Q9Y2H1)",45
"FLT3 (Homo sapiens, UniProt P36888, K663Q)",100
"ALK (Homo sapiens, UniProt Q9UM73, L1196M)",87
"LATS2 (Homo sapiens, UniProt Q9NRM7)",40
"PRKG2 (Homo sapiens, UniProt Q13237)",85
"PHKG1 (Homo sapiens, UniProt Q16816)",66
"MERTK (Homo sapiens, UniProt Q12866)",100
"OXSR1 (Homo sapiens, UniProt O95747)",90
"Ribosomal protein S6 kinase alpha-3, C-terminal kinase domain (RPS6KA3, Homo sapiens, UniProt P51812)",93
"FLT3 (Homo sapiens, UniProt P36888, D835V/ITD)",86

# Set 3 — observed: enzyme activity; action: inhibitor; tested at: 77 µM; reference: untreated
# Target: DNA polymerase theta, ATPase domain (POLQ, Homo sapiens, UniProt O75417)
# UniProt O75417, sequence (whole entry, unmodified, looked up): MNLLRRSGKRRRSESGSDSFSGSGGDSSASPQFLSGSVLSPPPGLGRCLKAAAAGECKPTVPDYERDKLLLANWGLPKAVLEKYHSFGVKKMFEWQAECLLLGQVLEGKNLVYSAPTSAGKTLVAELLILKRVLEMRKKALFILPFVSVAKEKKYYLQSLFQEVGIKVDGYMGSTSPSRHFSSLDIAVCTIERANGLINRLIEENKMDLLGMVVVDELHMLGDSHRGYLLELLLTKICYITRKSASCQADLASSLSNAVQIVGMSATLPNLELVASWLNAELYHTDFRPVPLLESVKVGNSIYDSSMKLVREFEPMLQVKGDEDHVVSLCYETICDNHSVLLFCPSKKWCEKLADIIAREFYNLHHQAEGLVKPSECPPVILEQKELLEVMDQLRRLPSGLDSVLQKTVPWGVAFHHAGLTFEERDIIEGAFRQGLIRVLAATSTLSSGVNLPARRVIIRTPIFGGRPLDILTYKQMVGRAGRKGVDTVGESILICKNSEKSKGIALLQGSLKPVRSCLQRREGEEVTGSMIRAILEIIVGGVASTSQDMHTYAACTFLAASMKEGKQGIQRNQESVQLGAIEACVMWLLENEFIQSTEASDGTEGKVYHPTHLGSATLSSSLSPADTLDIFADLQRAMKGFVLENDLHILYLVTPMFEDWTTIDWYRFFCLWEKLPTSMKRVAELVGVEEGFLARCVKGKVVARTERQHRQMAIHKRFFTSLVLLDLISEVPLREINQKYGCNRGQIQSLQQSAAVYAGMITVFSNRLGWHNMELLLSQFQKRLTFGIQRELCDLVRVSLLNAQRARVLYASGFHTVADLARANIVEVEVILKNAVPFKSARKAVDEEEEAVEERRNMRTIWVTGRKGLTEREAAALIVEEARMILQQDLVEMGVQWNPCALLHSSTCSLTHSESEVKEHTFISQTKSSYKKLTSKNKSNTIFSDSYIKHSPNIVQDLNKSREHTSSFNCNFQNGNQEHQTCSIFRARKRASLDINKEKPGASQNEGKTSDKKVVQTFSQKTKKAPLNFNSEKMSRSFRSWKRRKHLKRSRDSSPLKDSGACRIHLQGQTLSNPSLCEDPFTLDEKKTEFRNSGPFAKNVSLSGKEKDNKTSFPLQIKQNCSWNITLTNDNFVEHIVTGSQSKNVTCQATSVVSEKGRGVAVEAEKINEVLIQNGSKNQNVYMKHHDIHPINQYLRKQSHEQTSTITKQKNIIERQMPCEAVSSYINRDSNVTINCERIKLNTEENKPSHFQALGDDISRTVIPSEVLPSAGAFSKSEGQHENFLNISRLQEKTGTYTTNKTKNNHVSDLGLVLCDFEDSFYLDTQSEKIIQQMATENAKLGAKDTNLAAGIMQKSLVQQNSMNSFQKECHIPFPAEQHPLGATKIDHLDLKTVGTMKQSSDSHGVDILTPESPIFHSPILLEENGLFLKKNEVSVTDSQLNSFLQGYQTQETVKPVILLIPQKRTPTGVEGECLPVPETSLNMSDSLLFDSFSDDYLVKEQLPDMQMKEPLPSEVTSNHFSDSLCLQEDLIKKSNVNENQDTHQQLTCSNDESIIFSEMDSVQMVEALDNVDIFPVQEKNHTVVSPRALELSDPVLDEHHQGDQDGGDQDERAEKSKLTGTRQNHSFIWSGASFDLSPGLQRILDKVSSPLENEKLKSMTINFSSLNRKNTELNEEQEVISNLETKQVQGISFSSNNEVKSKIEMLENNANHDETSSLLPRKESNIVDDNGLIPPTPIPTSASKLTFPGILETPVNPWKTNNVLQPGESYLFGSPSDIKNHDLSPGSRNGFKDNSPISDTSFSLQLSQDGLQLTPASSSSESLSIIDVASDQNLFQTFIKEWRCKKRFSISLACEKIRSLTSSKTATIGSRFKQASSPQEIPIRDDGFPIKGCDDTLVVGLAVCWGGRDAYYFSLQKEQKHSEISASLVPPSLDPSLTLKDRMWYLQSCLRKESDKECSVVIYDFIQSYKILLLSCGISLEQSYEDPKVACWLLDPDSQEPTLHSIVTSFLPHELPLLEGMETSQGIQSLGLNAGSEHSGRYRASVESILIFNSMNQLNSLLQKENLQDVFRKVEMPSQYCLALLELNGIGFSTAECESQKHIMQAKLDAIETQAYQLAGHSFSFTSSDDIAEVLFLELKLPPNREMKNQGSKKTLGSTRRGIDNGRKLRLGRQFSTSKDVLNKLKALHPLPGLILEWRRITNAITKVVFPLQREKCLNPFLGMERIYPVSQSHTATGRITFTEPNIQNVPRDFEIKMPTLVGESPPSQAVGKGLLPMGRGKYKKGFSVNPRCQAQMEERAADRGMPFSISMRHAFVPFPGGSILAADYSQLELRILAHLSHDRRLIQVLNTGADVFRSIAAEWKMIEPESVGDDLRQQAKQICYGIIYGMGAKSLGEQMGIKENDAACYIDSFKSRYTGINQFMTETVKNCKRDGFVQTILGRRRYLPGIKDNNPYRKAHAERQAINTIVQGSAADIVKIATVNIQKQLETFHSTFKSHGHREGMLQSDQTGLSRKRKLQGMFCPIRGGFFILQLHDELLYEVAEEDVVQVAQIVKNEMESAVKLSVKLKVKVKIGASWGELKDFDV
Structure (SMILES),remaining activity
CCOC(=O)Nc1cc(-c2ccc(C)c(NS(C)(=O)=O)c2)nn2c(C)nnc12,99.9%
O=c1cc(O)cc(/C=C/c2ccc(O)c(O)c2)o1,92.7%
CC(/C=C1\SC(=S)N(CC(=O)O)C1=O)=C\c1ccccc1,72.2%
OCCN1CCN(CCCN2c3ccccc3Sc3ccc(Cl)cc32)CC1,131% and 109%
CN(C)c1nc(N)c(C(=O)NC(=N)N)nc1Cl,112%

# Set 4 — observed: RNA clamping; method: fluorescence polarization; tested at: concentration not given; notes: mean of two replicates; with: FAM-labelled poly r(AG)8 RNA
# Target: Eukaryotic initiation factor 4A-III (Homo sapiens, UniProt P38919)
# UniProt P38919, sequence (whole entry, looked up): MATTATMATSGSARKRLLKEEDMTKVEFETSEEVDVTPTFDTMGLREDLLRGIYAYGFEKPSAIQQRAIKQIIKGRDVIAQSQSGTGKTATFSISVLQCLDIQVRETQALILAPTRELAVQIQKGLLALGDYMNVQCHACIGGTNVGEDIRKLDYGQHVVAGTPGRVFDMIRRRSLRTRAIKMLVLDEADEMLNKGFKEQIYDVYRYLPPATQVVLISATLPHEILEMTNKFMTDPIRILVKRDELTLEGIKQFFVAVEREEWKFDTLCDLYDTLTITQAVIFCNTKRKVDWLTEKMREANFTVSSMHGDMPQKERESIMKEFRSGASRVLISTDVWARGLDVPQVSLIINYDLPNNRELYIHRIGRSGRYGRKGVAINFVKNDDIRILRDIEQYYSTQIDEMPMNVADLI
SMILES,fluorescence polarization change [mP]
C#CCOc1cc(OC)c2c(c1)O[C@@]1(c3ccc(OC)cc3)[C@H](c3ccccc3)c3c(nc4n(c3=O)CCC4)[C@@]21O,11.4
COc1ccc([C@@]23Oc4cc(OC)cc(OC)c4[C@]2(O)[C@H](O)[C@H](CO)[C@H]3c2ccccc2)cc1,39.6
COc1ccc([C@@]23Oc4cc(OC)cc(OC)c4[C@@](O)(C2=O)[C@H](c2ccccc2)[C@H]3c2ccccc2)cc1,6.3
COC(=O)[C@H]1[C@@H](O)[C@@]2(O)c3c(OC)cc(OCc4ccccc4)cc3O[C@@]2(c2ccc(OC)cc2)[C@@H]1c1ccccc1,6.6
C=CCOc1nc(-c2ccccc2)nc2c1[C@@H](c1ccccc1)[C@]1(c3ccc(OC)cc3)Oc3cc(OC)cc(OC)c3[C@]21O,4.1
COc1ccc([C@@]23Oc4cc(OC)cc(OC)c4[C@]2(O)[C@H](O)[C@H](C(=O)c2cc4ccccc4o2)[C@H]3c2ccccc2)cc1,8.2
COc1ccc([C@@]23Oc4cc(OC)cc(OC)c4[C@]2(NCc2ccccc2)C(=O)C[C@H]3c2ccccc2)cc1,5.1
C=CCn1c(-c2ccccc2)nc2c(c1=O)[C@@H](c1ccccc1)[C@]1(c3ccc(OC)cc3)Oc3cc(OC)cc(OC)c3[C@]21O,9.2

# For quick reference, copied from above (set 1):
target,remaining signal
"DYRK4 (Homo sapiens, UniProt Q9NR20)",100%
"Cyclin-dependent kinase 2, with cyclin E (CDK2, Homo sapiens, UniProt P24941)",13.4%
